Measured values from different studies.
Compare with care: the assays were run in different laboratories. ± marks the error that the study gave.
DCLRE1A: DNA cross-link repair 1A protein (DCLRE1A, Homo sapiens, UniProt Q6PJP8)
UniProt Q6PJP8, sequence (whole entry, looked up): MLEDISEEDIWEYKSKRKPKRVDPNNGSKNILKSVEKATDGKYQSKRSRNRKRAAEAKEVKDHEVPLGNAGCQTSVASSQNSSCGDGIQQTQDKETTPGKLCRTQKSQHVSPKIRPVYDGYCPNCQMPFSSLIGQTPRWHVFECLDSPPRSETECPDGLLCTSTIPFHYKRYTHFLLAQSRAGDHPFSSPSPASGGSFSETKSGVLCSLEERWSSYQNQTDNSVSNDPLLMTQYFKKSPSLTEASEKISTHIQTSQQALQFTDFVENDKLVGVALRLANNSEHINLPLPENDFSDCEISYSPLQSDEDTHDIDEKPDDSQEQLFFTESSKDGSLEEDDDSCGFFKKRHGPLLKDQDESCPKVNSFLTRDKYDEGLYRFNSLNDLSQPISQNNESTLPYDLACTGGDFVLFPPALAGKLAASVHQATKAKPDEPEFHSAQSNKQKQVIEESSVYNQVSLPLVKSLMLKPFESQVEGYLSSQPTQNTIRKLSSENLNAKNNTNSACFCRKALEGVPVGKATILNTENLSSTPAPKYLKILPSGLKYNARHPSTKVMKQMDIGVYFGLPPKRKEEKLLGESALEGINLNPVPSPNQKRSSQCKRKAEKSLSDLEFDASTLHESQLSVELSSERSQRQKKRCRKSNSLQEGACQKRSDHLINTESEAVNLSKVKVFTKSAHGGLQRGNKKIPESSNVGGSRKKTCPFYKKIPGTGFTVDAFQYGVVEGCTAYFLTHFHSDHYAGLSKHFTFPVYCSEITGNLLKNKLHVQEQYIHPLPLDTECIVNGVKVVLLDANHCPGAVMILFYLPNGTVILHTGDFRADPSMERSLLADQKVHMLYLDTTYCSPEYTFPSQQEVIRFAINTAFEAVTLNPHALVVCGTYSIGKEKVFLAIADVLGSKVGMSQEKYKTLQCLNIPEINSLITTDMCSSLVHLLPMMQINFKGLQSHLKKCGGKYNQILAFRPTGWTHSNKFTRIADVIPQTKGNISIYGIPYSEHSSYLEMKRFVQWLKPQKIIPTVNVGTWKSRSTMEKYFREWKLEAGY
STK11: Serine/threonine-protein kinase STK11 (STK11, Homo sapiens, UniProt Q15831)
UniProt Q15831, sequence (whole entry, looked up): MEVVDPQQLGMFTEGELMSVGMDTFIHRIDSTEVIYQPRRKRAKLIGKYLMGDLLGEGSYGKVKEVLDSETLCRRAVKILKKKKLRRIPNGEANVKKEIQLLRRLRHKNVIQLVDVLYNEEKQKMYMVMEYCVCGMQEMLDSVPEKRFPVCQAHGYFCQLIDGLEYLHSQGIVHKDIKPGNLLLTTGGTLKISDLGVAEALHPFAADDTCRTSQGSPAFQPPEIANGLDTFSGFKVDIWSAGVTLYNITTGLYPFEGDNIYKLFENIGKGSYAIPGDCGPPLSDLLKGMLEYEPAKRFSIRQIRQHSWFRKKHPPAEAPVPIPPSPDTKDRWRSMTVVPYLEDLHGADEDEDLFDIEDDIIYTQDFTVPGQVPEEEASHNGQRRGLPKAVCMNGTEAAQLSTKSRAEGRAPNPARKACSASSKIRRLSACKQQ
Map2k4: Dual specificity mitogen-activated protein kinase kinase 4 (Map2k4, Mus musculus, UniProt P47809)
UniProt P47809, sequence (whole entry, looked up): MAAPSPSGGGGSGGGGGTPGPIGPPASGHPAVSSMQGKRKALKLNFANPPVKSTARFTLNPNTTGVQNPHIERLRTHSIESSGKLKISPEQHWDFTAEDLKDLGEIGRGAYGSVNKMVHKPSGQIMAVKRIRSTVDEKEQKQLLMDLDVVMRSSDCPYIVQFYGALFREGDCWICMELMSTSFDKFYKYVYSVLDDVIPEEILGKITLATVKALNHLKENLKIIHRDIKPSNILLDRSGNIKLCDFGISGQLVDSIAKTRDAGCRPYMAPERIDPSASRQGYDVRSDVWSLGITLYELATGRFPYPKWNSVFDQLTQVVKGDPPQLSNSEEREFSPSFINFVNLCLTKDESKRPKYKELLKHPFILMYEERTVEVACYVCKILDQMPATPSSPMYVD
ARAF: Serine/threonine-protein kinase A-Raf (ARAF, Homo sapiens, UniProt P10398)
UniProt P10398, sequence (whole entry, looked up): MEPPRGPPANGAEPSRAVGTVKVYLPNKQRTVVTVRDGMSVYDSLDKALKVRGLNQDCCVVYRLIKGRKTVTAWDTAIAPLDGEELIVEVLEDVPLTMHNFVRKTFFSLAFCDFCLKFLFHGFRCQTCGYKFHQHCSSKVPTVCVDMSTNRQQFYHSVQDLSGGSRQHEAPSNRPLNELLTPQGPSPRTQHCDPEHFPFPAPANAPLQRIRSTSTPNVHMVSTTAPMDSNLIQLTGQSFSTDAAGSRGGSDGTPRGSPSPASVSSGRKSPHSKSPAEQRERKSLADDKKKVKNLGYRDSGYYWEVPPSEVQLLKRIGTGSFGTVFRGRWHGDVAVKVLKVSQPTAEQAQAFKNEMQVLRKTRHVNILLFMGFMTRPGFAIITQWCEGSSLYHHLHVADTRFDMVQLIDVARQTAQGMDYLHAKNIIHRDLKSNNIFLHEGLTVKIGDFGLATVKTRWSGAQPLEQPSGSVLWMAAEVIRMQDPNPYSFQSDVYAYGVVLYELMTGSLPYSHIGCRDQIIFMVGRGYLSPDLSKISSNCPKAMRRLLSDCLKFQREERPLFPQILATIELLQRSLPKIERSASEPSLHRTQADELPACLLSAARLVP
UniProt Q9P289, sequence (whole entry, looked up): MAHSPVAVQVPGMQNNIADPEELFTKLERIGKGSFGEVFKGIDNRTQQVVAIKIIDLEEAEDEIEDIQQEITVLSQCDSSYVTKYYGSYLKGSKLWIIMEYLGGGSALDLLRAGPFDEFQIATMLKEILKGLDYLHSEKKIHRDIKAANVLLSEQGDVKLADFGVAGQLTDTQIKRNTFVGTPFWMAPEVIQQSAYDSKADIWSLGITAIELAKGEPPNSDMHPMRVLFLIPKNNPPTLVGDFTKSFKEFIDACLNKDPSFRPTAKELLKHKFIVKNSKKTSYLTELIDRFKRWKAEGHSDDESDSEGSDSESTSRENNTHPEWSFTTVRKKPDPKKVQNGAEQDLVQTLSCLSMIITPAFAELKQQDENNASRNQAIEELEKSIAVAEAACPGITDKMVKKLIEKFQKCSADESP
UniProt Q56UN5, sequence (whole entry, looked up): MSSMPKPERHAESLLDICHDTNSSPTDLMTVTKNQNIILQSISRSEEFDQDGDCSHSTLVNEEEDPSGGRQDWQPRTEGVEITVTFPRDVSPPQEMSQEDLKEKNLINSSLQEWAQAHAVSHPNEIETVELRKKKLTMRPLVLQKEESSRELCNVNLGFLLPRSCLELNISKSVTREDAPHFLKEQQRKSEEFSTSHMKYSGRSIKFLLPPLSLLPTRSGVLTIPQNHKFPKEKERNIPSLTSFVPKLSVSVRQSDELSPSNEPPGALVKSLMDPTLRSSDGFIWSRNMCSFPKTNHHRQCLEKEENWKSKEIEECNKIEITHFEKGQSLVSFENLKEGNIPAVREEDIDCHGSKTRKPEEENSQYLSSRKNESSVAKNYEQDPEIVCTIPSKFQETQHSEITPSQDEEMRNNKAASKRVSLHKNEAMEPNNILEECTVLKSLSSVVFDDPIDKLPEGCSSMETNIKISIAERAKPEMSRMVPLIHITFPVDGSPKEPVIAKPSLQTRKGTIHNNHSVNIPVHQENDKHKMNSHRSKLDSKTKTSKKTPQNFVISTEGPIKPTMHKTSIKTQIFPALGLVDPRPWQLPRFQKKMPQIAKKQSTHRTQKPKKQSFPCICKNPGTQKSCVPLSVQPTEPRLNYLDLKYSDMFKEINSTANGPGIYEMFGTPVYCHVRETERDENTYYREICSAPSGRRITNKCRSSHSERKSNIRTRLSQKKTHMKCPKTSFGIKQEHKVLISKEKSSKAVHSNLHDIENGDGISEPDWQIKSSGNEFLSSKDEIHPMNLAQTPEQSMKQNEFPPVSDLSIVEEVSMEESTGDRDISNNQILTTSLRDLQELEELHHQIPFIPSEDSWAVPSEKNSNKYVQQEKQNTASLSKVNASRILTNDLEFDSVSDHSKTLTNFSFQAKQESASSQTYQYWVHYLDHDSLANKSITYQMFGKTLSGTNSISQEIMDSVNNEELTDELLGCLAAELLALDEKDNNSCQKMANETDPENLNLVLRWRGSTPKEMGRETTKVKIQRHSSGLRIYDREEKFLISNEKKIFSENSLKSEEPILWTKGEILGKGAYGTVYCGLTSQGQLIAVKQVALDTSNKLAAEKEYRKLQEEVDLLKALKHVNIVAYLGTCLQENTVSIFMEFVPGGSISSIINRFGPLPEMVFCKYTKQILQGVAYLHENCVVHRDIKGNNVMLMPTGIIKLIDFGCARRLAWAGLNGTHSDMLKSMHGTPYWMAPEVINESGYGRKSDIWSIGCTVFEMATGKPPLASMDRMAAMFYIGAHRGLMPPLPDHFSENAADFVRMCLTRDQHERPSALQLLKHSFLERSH
UniProt P04629, sequence (whole entry, looked up): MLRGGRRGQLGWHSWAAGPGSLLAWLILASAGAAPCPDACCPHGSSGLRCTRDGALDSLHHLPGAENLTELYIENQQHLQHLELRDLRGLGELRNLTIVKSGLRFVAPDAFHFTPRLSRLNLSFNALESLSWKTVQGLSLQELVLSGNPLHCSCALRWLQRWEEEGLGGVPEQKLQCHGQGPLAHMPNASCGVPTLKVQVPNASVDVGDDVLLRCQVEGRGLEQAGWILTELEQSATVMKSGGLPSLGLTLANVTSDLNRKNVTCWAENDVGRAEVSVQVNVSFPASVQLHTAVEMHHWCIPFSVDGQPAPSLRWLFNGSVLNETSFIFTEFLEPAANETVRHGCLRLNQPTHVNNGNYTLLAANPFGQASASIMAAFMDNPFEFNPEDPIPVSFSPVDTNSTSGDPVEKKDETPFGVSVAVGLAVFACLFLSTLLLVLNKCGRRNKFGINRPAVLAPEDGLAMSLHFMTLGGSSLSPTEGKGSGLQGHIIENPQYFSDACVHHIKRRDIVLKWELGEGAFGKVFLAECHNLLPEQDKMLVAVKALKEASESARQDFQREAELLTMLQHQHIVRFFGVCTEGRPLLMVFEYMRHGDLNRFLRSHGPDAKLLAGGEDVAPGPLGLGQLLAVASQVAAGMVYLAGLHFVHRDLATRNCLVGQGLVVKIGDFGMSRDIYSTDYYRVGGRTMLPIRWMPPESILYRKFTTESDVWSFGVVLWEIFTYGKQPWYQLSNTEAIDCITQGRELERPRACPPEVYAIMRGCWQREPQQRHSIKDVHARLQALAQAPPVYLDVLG

The remaining activity of `c1cnc2ccc(Nc3nc(NC4CC4)c4nc[nH]c4n3)cc2c1` is reported as 103% (RAC-alpha serine/threonine-protein kinase (AKT1, Homo sapiens, UniProt P31749); kinase activity, inhibitor, SelectScreen kinase profiling; 1 µM; baseline: control).
For `O=C(NC1CCC1)c1ccc2nc(-c3cccc(NS(=O)(=O)NCCN4CCCCC4)c3)cn2c1`, the remaining activity was 74% (High affinity nerve growth factor receptor (NTRK1, Homo sapiens, UniProt P04629); enzyme activity; 10 µM).
With `Cc1cc2c(C(C)C)c(O)c(O)c(C=O)c2c(O)c1-c1c(C)cc2c(C(C)C)c(O)c(O)c(C=O)c2c1O` the remaining activity was 38.6% (DCLRE1A; exonuclease activity, inhibitor, fluorescence HTS; 10 µM, 80 min, with: 8 nM 5P-FQ substrate).
For `OC[C@H]1OC(O)[C@H](O)[C@@H](O)[C@@H]1O` (stereo partly shown), the remaining activity was 94.7 ± 3.5% (uncharacterized protein (Lacticaseibacillus rhamnosus, UniProt A0A7S7JIA0); inhibitor; 1000 µM, 5 min; baseline: untreated).
The remaining activity of `Cc1[nH]c(/C=C2\C(=O)Nc3ccc(F)cc32)c(C)c1C(=O)N[C@H]1CCN(C(=O)N(C)C)C1` is reported as 74% (AMPK, rat; kinase activity, KinaseProfiler; 0.1 µM; baseline: control).
`Nc1c(S(=O)(=O)O)cc(Nc2ccc(Nc3nc(Cl)nc(Nc4cccc(S(=O)(=O)O)c4)n3)c(S(=O)(=O)O)c2)c2c1C(=O)c1ccccc1C2=O` gave a remaining activity of 18.7% (DCLRE1A; exonuclease activity, inhibitor, fluorescence HTS; 10 µM, 80 min, with: 8 nM 5P-FQ substrate).
`COc1cc(Nc2ncc3c(n2)-c2ccc(Cl)cc2C(c2c(F)cccc2OC)=NC3)ccc1C(=O)O` has a remaining activity of 105% (ZAP70; kinase activity; 1 µM).
The remaining activity of `COc1cc(-c2oc3cc(O)ccc3c(=O)c2O)ccc1O` is reported as 47.4% (DCLRE1A; exonuclease activity, inhibitor, fluorescence HTS; 10 µM, 80 min, with: 8 nM 5P-FQ substrate).
For `O=C(O)c1ccc(Nc2ncc3c(n2)-c2ccc(Cl)cc2C(c2c(F)cccc2F)=NC3)cc1`, the remaining activity was 109% (CHK1(h); kinase activity; 1 µM).
`C=CC(=O)N1CCC[C@@H](n2nc(-c3ccc(Oc4ccccc4)cc3)c3c(N)ncnc32)C1` gave a remaining activity of 85.1% (Myosin light chain kinase, smooth muscle (MYLK, Homo sapiens, UniProt Q15746); 1 µM).
The remaining activity of `COc1ccc(-c2coc3cc(O)ccc3c2=O)c(O)c1O` is reported as 49.3% (DCLRE1A; exonuclease activity, inhibitor, fluorescence HTS; 10 µM, 80 min, with: 8 nM 5P-FQ substrate).
`CNc1ncc2c(/C=C/C(=O)N3CCC(OC)CC3)nn(Cc3cccc(C(F)(F)F)c3)c2n1` gave a remaining activity of 104% (Ephrin type-B receptor 1 (EPHB1, Homo sapiens, UniProt P54762); kinase activity, inhibitor; 1 µM; baseline: untreated control).
`Cc1cc(Nc2cc(N3CCN(C)CC3)nc(Sc3ccc(NC(=O)C4CC4)cc3)n2)[nH]n1` gave a remaining activity of 85% (STK11; kinase activity, KinaseProfiler; 0.03 µM, species human; baseline: control).
`NC/C(=C\F)COc1cccc(Cn2c(=S)[nH]c(=O)c3[nH]cnc32)c1` has a remaining activity of -4.18% (Myeloperoxidase (MPO, Homo sapiens, UniProt P05164); H2O2 consumption, H2O2-specific electrode; 10 µM; baseline: control).
`O=C([O-])c1ccccc1-c1c2cc(I)c(=O)c(I)c-2oc2c(I)c([O-])c(I)cc12.[Na+].[Na+]` gave a remaining activity of 51.7% (DCLRE1A; exonuclease activity, inhibitor, fluorescence HTS; 10 µM, 80 min, with: 8 nM 5P-FQ substrate; baseline: high and low controls).
With `COc1cc(-c2cncc3c2CN(C)Cc2cc(N4CCNCC4)ccc2-3)cc(OC)c1OC` the remaining activity was 88% (Map2k4; kinase activity; 1 µM, mouse enzyme, with: ATP 10 µM; baseline: DMSO control).
`CC#CC(=O)N1CCC[C@H]1c1nc(-c2ccc(C(=O)Nc3ccccn3)cc2)c2c(N)nccn12` gave a remaining activity of 93.9 ± 0.8% (ARAF; kinase activity, inhibitor, HotSpot radiometric; 100 nM, with: ATP 10 µM).
`CC[C@H](NC(=O)[C@H](Cc1cscn1)NC(=O)CCc1ccccc1)C(=O)N[C@@H](CCCNC(=N)N)C(=O)c1nc2ccccc2s1` has a remaining activity of 14% (Transmembrane protease serine 6 (Homo sapiens, UniProt Q8IU80); enzyme activity, inhibitor; 100 nM; baseline: vehicle).
`COc1ccc(F)cc1C(=O)NCc1ccc(-c2nn([C@@H](C)C(F)(F)F)c(N)c2C(N)=O)cc1` has a remaining activity of 94.5 ± 1.2% (ARAF; 1000 nM, with: ATP at Km).
`Cc1ccc(NC(=O)c2ccc(C)c(C(F)(F)F)c2)cc1C#Cc1nn(C2CCC(O)CC2)c2ncnc(N)c12` (stereo not shown) has a remaining activity of 84% (Phosphatidylinositol 4,5-bisphosphate 3-kinase catalytic subunit beta isoform, with p85 alpha (Pik3cb, Mus musculus, UniProt Q8BTI9); enzyme activity, inhibitor; 10 µM, p110b/p85a)(m mouse, with: ATP 10 µM).
`O=c1oc2c(O)c(O)cc3c(=O)oc4c(O)c(O)cc1c4c23` has a remaining activity of 45% (DCLRE1A; exonuclease activity, inhibitor, fluorescence HTS; 10 µM, 80 min, with: 8 nM 5P-FQ substrate).
For `C1=C/COCc2cc(ccc2OCCN2CCCC2)Nc2nccc(n2)-c2cccc(c2)COC/1`, the remaining activity was 92% (Epidermal growth factor receptor (EGFR, Homo sapiens, UniProt P00533, del752-759); concentration not given; baseline: untreated control).
For `O=C1NC(=O)/C(=C/c2ccc(-c3ccc(F)cc3O)o2)S1`, the remaining activity was 66% (cAMP-dependent protein kinase catalytic subunit alpha (PRKACA, Homo sapiens, UniProt P17612); enzyme activity; 10 µM).
`C=CC(=O)N1CCC[C@@H](n2nc(-c3ccc(Oc4ccccc4)cc3)c3c(N)ncnc32)C1` has a remaining activity of 76.5 ± 1% (Serine/threonine-protein kinase 26 (STK26, Homo sapiens, UniProt Q9P289); kinase activity, inhibitor, HotSpot radiometric; 100 nM, with: ATP 10 µM).
For `Cc1cc(NC(=O)c2cccc(NC(=O)/C=C/CN(C)C)c2)ccc1Nc1nccc(-c2cccnc2)n1`, the remaining activity was 1.04 (Mitogen-activated protein kinase 8 (MAPK8, Homo sapiens, UniProt P45983); enzyme activity, inhibitor; 0.0007527 µM, 6 h, unit not given, with: GSH 10 mM pre-incubation; baseline: vehicle).
For `COc1cc(N2CCN(C)CC2)ccc1Nc1nc(N)n(C(=S)NCc2c(Cl)cccc2Cl)n1`, the remaining activity was 1.1% (STK11; enzyme activity; 10 µM; baseline: control).
The remaining activity of `CC(C)(O)[C@H]1CC[C@H](Nc2ccc3ncc(-c4cccc(C(F)(F)F)c4)n3n2)CC1` is reported as 80.9% (SRSF protein kinase 3 (SRPK3, Homo sapiens, UniProt Q9UPE1); enzyme activity, inhibitor; 1 µM, with: 10 µM ATP; baseline: DMSO).
The remaining activity of `Cc1cc2nc3c(=O)[nH]c(=O)nc-3n(C[C@H](O)[C@H](O)[C@H](O)CO)c2cc1C` is reported as 44.7% (DCLRE1A; exonuclease activity, inhibitor, fluorescence HTS; 10 µM, 80 min, with: 8 nM 5P-FQ substrate).
`COc1cc(N2CCN(C)CC2)ccc1Nc1nc(N)n(C(=O)NCc2c(Cl)cccc2Cl)n1` has a remaining activity of 0.95% (Mitogen-activated protein kinase kinase kinase 19 (MAP3K19, Homo sapiens, UniProt Q56UN5); enzyme activity; 10 µM; baseline: control).
For `CC1=C(CCC(=O)O)c2cc3[nH]c(cc4nc(cc5[nH]c(cc1n2)c(C)c5C(C)O)C(C)=C4C(C)O)c(C)c3CCC(=O)O` (stereo not shown), the remaining activity was 17.7% (DCLRE1A; exonuclease activity, inhibitor, fluorescence HTS; 10 µM, 80 min, with: 8 nM 5P-FQ substrate).
`COc1cc(F)ccc1-c1ncnc(Nc2cccc(C[S@](C)(=N)=O)c2)n1` gave a remaining activity of 107% (Map2k4; kinase activity; 10 µM, with: 10 µM ATP).

For quick reference, copied from above:
`C=CC(=O)N1CCC[C@@H](n2nc(-c3ccc(Oc4ccccc4)cc3)c3c(N)ncnc32)C1` has a remaining activity of 76.5 ± 1% (Serine/threonine-protein kinase 26 (STK26, Homo sapiens, UniProt Q9P289); kinase activity, inhibitor, HotSpot radiometric; 100 nM, with: ATP 10 µM).
For `Cc1cc(NC(=O)c2cccc(NC(=O)/C=C/CN(C)C)c2)ccc1Nc1nccc(-c2cccnc2)n1`, the remaining activity was 1.04 (Mitogen-activated protein kinase 8 (MAPK8, Homo sapiens, UniProt P45983); enzyme activity, inhibitor; 0.0007527 µM, 6 h, unit not given, with: GSH 10 mM pre-incubation; baseline: vehicle).
For `COc1cc(N2CCN(C)CC2)ccc1Nc1nc(N)n(C(=S)NCc2c(Cl)cccc2Cl)n1`, the remaining activity was 1.1% (STK11; enzyme activity; 10 µM; baseline: control).
The remaining activity of `CC(C)(O)[C@H]1CC[C@H](Nc2ccc3ncc(-c4cccc(C(F)(F)F)c4)n3n2)CC1` is reported as 80.9% (SRSF protein kinase 3 (SRPK3, Homo sapiens, UniProt Q9UPE1); enzyme activity, inhibitor; 1 µM, with: 10 µM ATP; baseline: DMSO).
